# Measured values from different studies.
# Each numbered part is a random draw from the data of one study; scales do not carry over between parts.

# Study 1 — technique: universal PBM; molecule type: double-stranded DNA, one strand shown; matrix: in vitro; concentration: not given; direction: higher = stronger binding
# Target: Sal-like protein 4, full length isoform B (SALL4, Homo sapiens, UniProt Q9UJQ4-2, residues 1-616)
# Setting: 8-mer, flanks averaged, mean of replicates
# Residues (chain): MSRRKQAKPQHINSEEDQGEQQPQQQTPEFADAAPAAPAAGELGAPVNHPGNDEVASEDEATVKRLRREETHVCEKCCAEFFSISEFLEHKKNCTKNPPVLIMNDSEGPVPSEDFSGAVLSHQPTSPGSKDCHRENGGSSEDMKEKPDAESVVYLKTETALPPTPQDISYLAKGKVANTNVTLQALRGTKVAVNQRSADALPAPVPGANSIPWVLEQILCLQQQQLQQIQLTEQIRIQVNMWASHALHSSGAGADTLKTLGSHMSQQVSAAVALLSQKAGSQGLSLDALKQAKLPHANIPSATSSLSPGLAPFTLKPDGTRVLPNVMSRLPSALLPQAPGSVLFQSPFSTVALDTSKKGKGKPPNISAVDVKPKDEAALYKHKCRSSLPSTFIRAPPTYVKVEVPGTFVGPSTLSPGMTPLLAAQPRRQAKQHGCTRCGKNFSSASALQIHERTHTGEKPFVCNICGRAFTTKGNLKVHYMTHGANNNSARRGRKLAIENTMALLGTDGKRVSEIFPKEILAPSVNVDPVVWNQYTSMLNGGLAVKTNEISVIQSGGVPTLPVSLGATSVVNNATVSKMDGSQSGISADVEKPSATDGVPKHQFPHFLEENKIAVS
Sequence,E-score
ATCAATGC,-0.00358
GCGTTCAA,0.064
GGCCCAAC,-0.225
GTCTCTAA,0.017

# Study 2 — technique: protein-binding microarray; molecule type: double-stranded DNA, one strand shown; matrix: in vitro; concentration: 250 nM; setting: 60-bp whole probe; with: salmon DNA 0.4 mg/ml; baseline: random background probes; direction: higher = stronger binding
# Target: Interferon regulatory factor 5, full length, phosphomimetic (IRF5, Homo sapiens, UniProt Q13568-2, residues 1-514, K96S/S451D/S453D/S456D/S462D)
# Shared flanks, not repeated: GCCTAGCAC … GTGCTAGGTCTTGATTCGCTTGACGCTGCTG
Sequence,log fluorescence
TTAGGTTTCGTACTGGGTTA,4.06 z-score
GACGGTATCCTTTTCGTGAC,0.562 z-score
GACGAACTGAGCCTCGAGAC,-0.301 z-score
GACGGTCTCCTTCTCCTTAC,-0.205 z-score
TTAGATATCACTTTCGATTA,11 z-score

# Study 3 — technique: aptamer microarray, sandwich; molecule type: DNA with 2'F-ANA; matrix: in vitro; concentration: 200 nM; with: Cy3 exosite-II aptamer, 400 nM; direction: higher = stronger binding; sequence: GGTTGGTGTGGTTGG
# Target: Prothrombin, mature alpha-thrombin (F2, Homo sapiens, UniProt P00734)
# Setting: whole 15-mer aptamer, many near background
Modification,mean fluorescence intensity
2'F-ANA at 1 2 3 4 5,57.1 a.u.
2'F-ANA at 1 2 3 5 6 7 9 10 11 12 13 14,175 a.u.
2'F-ANA at 1 3 4 7 10 11 12 13,96.5 a.u.
2'F-ANA at 2 5 6 10 11 13 14,56.4 a.u.
2'F-ANA at 1 2 4 6 7 12 14,57.6 a.u.

# Study 4 — technique: Sort-seq; measured: YFP reporter; matrix: E. coli; setting: PhoQ-PhoP variant library; with: 10 µM Mg2+; baseline: high Mg2+ state; direction: higher = stronger signaling
# Molecule: PhoQ, residues 284 288 289 292 302 303 QWGLFV
target,fold induction
"PhoP, residues 12 14 15 18 19 GMGLL (Escherichia coli, UniProt P23836)",1.57
"PhoP, residues 12 14 15 18 19 LFHKL (Escherichia coli, UniProt P23836)",8.49
"PhoP, residues 12 14 15 18 19 QQAYL (Escherichia coli, UniProt P23836)",11.1
